# Measured values of several laboratories.
# Each line is one published result; not all experiments were run side by side.
Compound,assay,test system,setting,endpoint,result
CN(C(=O)n1cnc(-c2ccc[n+]([O-])c2)c1)C1CCCCC1,,"male cynomolgus monkey, plasma","oral, 1 mg/kg",AUC(0-t),1.89 µg·h/mL
COc1cccc(Cn2nc(-c3ccc(CO)o3)c3ccccc32)c1,metabolic stability,"rat, liver microsomes","1 µM, pH 7.4",half-life,0.0333 h
Cn1nc2c(=O)n(C3CC3)ccc2c1[C@](O)(c1cnc(C(F)(F)F)c(Cl)c1)C1CC1,nephelometry,aqueous buffer,"30 min, pH 6.5",kinetic solubility,< 25 µM
Cc1c(C(=O)O)ccc2c3n(nc12)[C@@H]1[C@H](C3)N(CC2CC2)[C@@]2(C(=O)Nc3cc(Cl)ccc32)[C@H]1c1cccc(Cl)c1F,,"female minipig, plasma","oral, 2 mg/kg",bioavailability,76%
CN(C)C(=O)c1cc2cnc(Nc3ccc(-c4ccc5c(=O)cc(N6CCOCC6)oc5c4)cc3)nc2n1C1CCCC1,,"BALB/c mouse, plasma","oral, 20 mg/kg",bioavailability,10.5%
O=C1c2ccncc2C(=O)c2c1[nH]c1ccccc21,,"rat, plasma","intravenous, 5 mg/kg, single dose",clearance,13.7 mL/min
Cc1nc(-c2cnc(NC(C)C)n(C)c2=O)ccc1Oc1ccnc(-c2cnn(C)c2)c1,,"female mouse, plasma","oral, 30 mg/kg, single dose",Tmax,6 h
COc1cccc(-c2n[nH]c(SCc3ccccn3)n2)c1OC,,"male Sprague-Dawley rat, plasma","oral, 30 mg/kg, 1 h, single dose",concentration,36.6 µg/mL
O=C(C=Cc1ccccc1)Nc1cc(-c2ccnc(N3CCC(O)CC3)c2)ccn1,,"female Sprague-Dawley rat, plasma","intravenous, 5 mg/kg",Vd,9.45 L/kg
C[C@@H](c1ncncc1F)[C@](O)(Cn1cncn1)c1ccc(F)cc1F,haemolysis,mouse,"62.5 µg/mL, 1 h",haemolysis,100%
Cc1noc(C)c1Cn1cc(N2C(=O)CN(Cc3cccc(O)c3)C2=O)cn1,,"male Sprague-Dawley rat, plasma","oral, 10 mg/kg, 30 min",concentration,0.0123 µg/mL
Cc1ncsc1-c1ccc([C@H](C)NC(=O)[C@@H]2C[C@@H](O)CN2C(=O)[C@@H](NC(=O)CCCCCCCCCCC(=O)NCCCn2cc(-c3ccc4c(c3)CCN4C(=O)Cc3cccc(OC(F)(F)F)c3)c3c(N)ncnc32)C(C)(C)C)cc1,metabolic stability,"human, liver microsomes",,half-life,0.167 h
CC/C(=C(\c1ccc(O)cc1)c1ccc(OCCNC)cc1)c1ccccc1,,"female C57BL/6 mouse, plasma","oral, 1 mg/kg, single dose",half-life,31 h
C=CCn1c(=O)c2cnc(Nc3ccc(N4CCN(C)CC4)cc3)nc2n1-c1ccc2c(n1)[C@@](O)(CC)CC2,,"dog, plasma","intravenous, 3 mg/kg",Vd,4.4 L/kg
Cc1ccc2c(c1)nc(CCc1cccc3cccnc13)n2-c1ccccc1,metabolic stability,"rat, liver microsomes","1.5 µM, 15 min",compound remaining,0.15%
NCc1ccc(-c2nn(Cc3ccncc3)c3ccccc23)o1,,"male CD-1 mouse, plasma","intraperitoneal, 30 mg/kg",bioavailability,84%
COc1ccc2c(=O)n(C)c(-c3ccccc3)nc2c1,,"male Sprague-Dawley rat, spleen","oral, 30 mg/kg, 4 h, single dose",concentration,67.4 ng/g
CC[C@@](O)(c1ccc(F)c(Cl)c1)c1c2ccn(C3CC3)c(=O)c2nn1C,nephelometry,aqueous buffer,"30 min, pH 6.5",kinetic solubility,40 to 80 µM
O=C(COc1ccc(Cl)cc1)NC12CC(c3nnc([C@H]4C[C@@H](OC(F)(F)F)C4)o3)(C1)C2,,"human, plasma","oral, 100 mg, multiple doses, once daily, steady state, healthy volunteers",Tmax,4.05 h
O=c1ccc2ccc(O)cc2o1,metabolic stability,"monkey, liver microsomes",,scaled CLint,50.8 L/h/kg
O=C1CC[C@H](N2Cc3cc(N4CCN(CC5CCN(c6ccc([C@@H]7c8ccc(O)cc8CC[C@@H]7c7ccccc7)cc6)CC5)CC4)ccc3C2=O)C(=O)N1,,"female Sprague-Dawley rat, plasma","intravenous, 5 mg/kg, fed",clearance,0.481 L/h/kg
C[C@H]1COC2=C1C(=O)C(=O)c1c2ccc2c1CCCC2(C)C,,water,"24 h, 25 °C",thermodynamic solubility,0.0262 mg/mL
COc1ccc([C@@H](O)c2cc(-c3ncnc4cc(N5CCOCC5)ccc34)c(F)cc2Cl)nn1,,"human, plasma","oral, 200 mg, multiple doses, twice daily, patients",Tmax,1.16 h
Cn1nc2c(=O)n(C3CC3)ccc2c1[C@](O)(c1ccc(C(F)(F)F)nc1)C1CC1,nephelometry,aqueous buffer,"30 min, pH 6.5",kinetic solubility,20 to 40 µM
CCN1CCN(Cc2ccc(NC(=O)c3ccc(C)c(NC(=O)c4cncc(-c5cccs5)c4)c3)cc2C(F)(F)F)CC1,,"mouse, plasma","intraperitoneal, 10 mg/kg, single dose",half-life,2.02 h
O=C(c1ccc(F)cc1)C1CCN(CCn2c(=O)[nH]c3ccccc3c2=O)CC1,metabolic stability,"rat, liver microsomes",5 min,compound remaining,82.9%
COc1ccc(N/N=C/c2ccc(-c3ccc(/C=N/Nc4ccc(OC)cc4)cc3)cc2)cc1,haemolysis,mouse,"62.5 µg/mL, 1 h",haemolysis,< 30%
Cc1ccc2c(c1)nc(/C=C/c1cccc3cccnc13)n2-c1ccccc1,metabolic stability,"rat, liver microsomes","1.5 µM, 10 min",compound remaining,66.9%
CC[C@@](O)(c1cc(F)c(Cl)c(F)c1)c1c2ccn(C3CC3)c(=O)c2nn1C,nephelometry,aqueous buffer,"30 min, pH 6.5",kinetic solubility,50 to 100 µM
Cc1cc(C)cc(C(=O)c2c(C(C)C)c(=O)[nH]c(=O)n2Cc2ccnc(N)c2)c1,,"male Sprague-Dawley rat, plasma","intravenous, 20 mg/kg",Vd,184 L/kg
Cc1cc(NC(=O)c2cccc(NC(=O)/C=C/CN(C)C)c2)ccc1Nc1nccc(-c2cccnc2)n1,metabolic stability,"male Wistar rat, hepatocytes",1 µM,half-life,1.98 h
Nc1ncc(-c2ccncc2)nc1Nc1ccc2[nH]ccc2c1,,"male C57BL/6 mouse, plasma","intravenous, 5 mg/kg",Vd,6.8 L/kg
CCn1cc(C2CC2)c2c(CN3CCC(F)(F)C(C)(C)C3)n(C)nc2c1=O,nephelometry,aqueous buffer,"30 min, pH 6.5",kinetic solubility,12.5 to 25 µM
CCOC(=O)[C@@]12C[C@@H]1[C@@H](n1ccc3c(NC)nc(C#Cc4ccc(Cl)s4)nc31)[C@H](O)[C@@H]2O,,"male Sprague-Dawley rat, plasma","intravenous, 0.5 mg/kg",C0,0.0288 µg/mL
N=C(N)N/N=C/c1ccc(-c2cccc(/C=N/NC(=N)N)c2)cc1,haemolysis,mouse,"62.5 µg/mL, 1 h",haemolysis,< 20%
CCn1cc(C2CC2)c2c(Cc3cnc(C(F)(F)F)c(C)c3)n(C)nc2c1=O,nephelometry,aqueous buffer,"30 min, pH 6.5",kinetic solubility,50 to 100 µM
N#C[C@@]1(c2ccc3c(N)ncnn23)O[C@H](CO)[C@@H](O)[C@H]1O,,"dog, plasma",,fraction unbound,0.923
CC[C@@](O)(c1cc(F)c(F)c(F)c1)c1c2ccn(C3CC3)c(=O)c2nn1C,nephelometry,aqueous buffer,"30 min, pH 6.5",kinetic solubility,50 to 100 µM
Cc1ncsc1-c1ccc([C@H](C)NC(=O)[C@@H]2C[C@@H](O)CN2C(=O)[C@@H](NC(=O)CCCCn2cc(CCCC(=O)NCCCn3cc(-c4ccc5c(c4)CCN5C(=O)Cc4cccc(OC(F)(F)F)c4)c4c(N)ncnc43)nn2)C(C)(C)C)cc1,metabolic stability,"mouse, liver S9",1 µM,half-life,0.455 h
Cn1nc2c(=O)n(C3CC3)ncc2c1[C@](N)(c1ccc(C(F)(F)F)c(Cl)c1)C1CC1,nephelometry,aqueous buffer,"30 min, pH 6.5",kinetic solubility,12.5 to 25 µM
C/C(=N\c1ccc(O)cc1)c1cc2ccccc2n1C,,"male Sprague-Dawley rat, plasma","intravenous, 5 mg/kg, single dose",Vd,~25 L/kg
